{"data": "Published values collected from several papers", "note": "Every numbered part comes from another study and shows a few of its results, in no order. Changes are numbered by the printed parent chain."}
{"data": "Block 1", "target": "Sal-like protein 4, full length isoform B (SALL4, Homo sapiens, UniProt Q9UJQ4-2, residues 1-616)", "method": "universal PBM", "form": "double-stranded DNA, one strand shown", "medium": "in vitro", "tested at": "not given", "notes": "8-mer, flanks averaged, mean of replicates", "direction": "higher = stronger binding"}
{"Oligonucleotide": "CCACAACC", "E-score": -0.0318}
{"Oligonucleotide": "GAGAAAAA", "E-score": 0.129}
{"Oligonucleotide": "GTGATTCA", "E-score": -0.053}
{"Oligonucleotide": "AGGGCCAT", "E-score": -0.212}
{"Oligonucleotide": "CACGGCTC", "E-score": -0.267}
{"Oligonucleotide": "GCGTAAGA", "E-score": 0.0393}
{"Oligonucleotide": "GGCCCGCC", "E-score": -0.274}
{"Oligonucleotide": "AATCGCAC", "E-score": 0.0402}
{"data": "Block 2", "target": "Centromere-binding protein 1, full length, His-tagged (CBF1, Saccharomyces cerevisiae, UniProt P17106, residues 1-351)", "method": "competition protein-binding microarray", "form": "double-stranded DNA, one strand shown", "medium": "in vitro", "tested at": "2 µM", "notes": "whole 60-bp probe, lowest competitor level", "added": "Pho4 competitor, 0.05 µM", "direction": "higher = stronger binding", "chain of UniProt P17106 (whole entry, looked up)": "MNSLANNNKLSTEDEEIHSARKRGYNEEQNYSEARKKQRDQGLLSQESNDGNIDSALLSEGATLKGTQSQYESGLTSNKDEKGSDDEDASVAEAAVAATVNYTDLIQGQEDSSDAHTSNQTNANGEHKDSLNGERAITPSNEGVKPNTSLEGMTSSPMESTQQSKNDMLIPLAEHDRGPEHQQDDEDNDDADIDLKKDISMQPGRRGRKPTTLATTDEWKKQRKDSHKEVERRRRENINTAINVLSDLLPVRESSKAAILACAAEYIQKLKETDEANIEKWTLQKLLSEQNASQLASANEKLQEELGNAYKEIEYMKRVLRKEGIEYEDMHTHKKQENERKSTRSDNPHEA"}
{"Oligonucleotide": "CTTGACCACTTATTTCACGGGCTCCGTAGCGGACAAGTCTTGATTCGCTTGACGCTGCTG", "fluorescence intensity [a.u.]": 76.3}
{"Oligonucleotide": "GGTTTACGTCAGGGTCCTTTGGCGGGTGGTGGTTCAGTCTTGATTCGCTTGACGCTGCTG", "fluorescence intensity [a.u.]": 56.1}
{"Oligonucleotide": "TTATCCACTACCTGTCATGATGGTCCATTTGGTGCTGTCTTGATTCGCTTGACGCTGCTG", "fluorescence intensity [a.u.]": 67.9}
{"Oligonucleotide": "ATCAGGTTCTATCCAATACAAAAAGGAGTATGAAGAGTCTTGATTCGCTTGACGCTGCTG", "fluorescence intensity [a.u.]": 72.9}
{"Oligonucleotide": "AGGAAAAGTTACCTGCGCATGCCGATGTCTACACTTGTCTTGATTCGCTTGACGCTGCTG", "fluorescence intensity [a.u.]": 66.4}
{"Oligonucleotide": "CTATTGCAAGAACTGGCCGTGATGGCAGAGTATCGGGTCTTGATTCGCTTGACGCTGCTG", "fluorescence intensity [a.u.]": 66.8}
{"Oligonucleotide": "CCTAATGTTAACGGCCACGGGGAATGCGGATCAACTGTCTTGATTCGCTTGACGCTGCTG", "fluorescence intensity [a.u.]": 75.1}
{"Oligonucleotide": "CAGGAGAACTTGCATCATGTGGTGTTCTTCCGAGATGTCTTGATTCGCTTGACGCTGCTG", "fluorescence intensity [a.u.]": 254}
{"data": "Block 3", "target": "CCNB1, cyclin fold, Cln2 fusion (human)", "method": "yeast growth competition, sequencing", "medium": "yeast", "notes": "strong parent motif", "baseline": "not given", "direction": "higher = stronger binding", "starting sequence": "viral docking peptide; YKVKRRLVFGADD; partner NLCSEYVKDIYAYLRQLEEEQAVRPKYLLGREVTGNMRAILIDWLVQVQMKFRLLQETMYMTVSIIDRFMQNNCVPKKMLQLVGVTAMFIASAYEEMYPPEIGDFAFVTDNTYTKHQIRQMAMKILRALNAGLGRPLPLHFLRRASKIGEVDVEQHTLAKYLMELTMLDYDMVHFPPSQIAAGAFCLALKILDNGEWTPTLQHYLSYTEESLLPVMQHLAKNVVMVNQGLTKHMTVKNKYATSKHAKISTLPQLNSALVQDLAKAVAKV"}
{"Variant": "YKVKRRLVWGADD [F9W]", "normalised enrichment score": 1.45}
{"Variant": "YKVKRRLVFCADD [G10C]", "normalised enrichment score": 3.24}
{"Variant": "YKVKYRLVFGADD [R5Y]", "normalised enrichment score": 0.289}
{"Variant": "YKVVRRLVFGADD [K4V]", "normalised enrichment score": 4.73}
{"Variant": "YKVKRRLEFGADD [V8E]", "normalised enrichment score": 4.62}
{"Variant": "YKVWRRLVFGADD [K4W]", "normalised enrichment score": 0.879}
{"Variant": "YKVKRHLVFGADD [R6H]", "normalised enrichment score": 0.582}
{"Variant": "YKVKRRLVFGHDD [A11H]", "normalised enrichment score": 3.83}
{"Variant": "YKVKRRLVFVADD [G10V]", "normalised enrichment score": 3.04}
{"Variant": "YKVKRRLVFGQDD [A11Q]", "normalised enrichment score": 3.36}
{"Variant": "YKVKRREVFGADD [L7E]", "normalised enrichment score": 0.538}
{"Variant": "YKVKNRLVFGADD [R5N]", "normalised enrichment score": -0.321}
{"Variant": "YKVKRRLVFGAWD [D12W]", "normalised enrichment score": 1.65}
{"Variant": "YKVKRRLVFGAND [D12N]", "normalised enrichment score": 2.8}
{"Variant": "YKVKRLLVFGADD [R6L]", "normalised enrichment score": 0.647}
{"Variant": "YKVKRRLVFGASD [D12S]", "normalised enrichment score": 2.45}
{"Variant": "YKVKRRLVFGAKD [D12K]", "normalised enrichment score": 1.13}
{"Variant": "YKVKRRLVFGAMD [D12M]", "normalised enrichment score": 2.46}
{"Variant": "YKVKRRPVFGADD [L7P]", "normalised enrichment score": 0.252}
{"Variant": "YKVKRRLKFGADD [V8K]", "normalised enrichment score": 2.62}
{"Variant": "YKVKRRFVFGADD [L7F]", "normalised enrichment score": 0.534}
{"Variant": "YKVKRQLVFGADD [R6Q]", "normalised enrichment score": 2.64}
{"Variant": "YKVKRRLVFGWDD [A11W]", "normalised enrichment score": 3.15}
{"Variant": "YKVKRRLVFGALD [D12L]", "normalised enrichment score": 1.74}
{"Variant": "YKVKRRLVFGADA [D13A]", "normalised enrichment score": 1.67}
{"data": "Block 4", "target": "CRIPT, C-terminal peptide", "method": "DHFR complementation, deep sequencing", "medium": "yeast", "notes": "single substitutions, model-inferred values", "baseline": "wild type", "direction": "higher = weaker binding", "starting sequence": "ERBIN, PDZ domain 1 (human); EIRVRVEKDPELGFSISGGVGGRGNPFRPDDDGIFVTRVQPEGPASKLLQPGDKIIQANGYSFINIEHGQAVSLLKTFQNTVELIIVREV; partner TKNYKQTSV"}
{"Variant": "G24A", "binding free energy change": "1.54 kcal/mol"}
{"Variant": "R88G", "binding free energy change": "0.584 kcal/mol"}
{"Variant": "V87A", "binding free energy change": "-0.0738 kcal/mol"}
{"Variant": "I66L", "binding free energy change": "-0.0637 kcal/mol"}
{"Variant": "G13V", "binding free energy change": "0.44 kcal/mol"}
{"Variant": "D53I", "binding free energy change": "0.781 kcal/mol"}
{"Variant": "R5W", "binding free energy change": "0.182 kcal/mol"}
{"Variant": "I56M", "binding free energy change": "0.0421 kcal/mol"}
{"data": "Block 5", "target": "Protein C-ets-1 (ETS1, Homo sapiens, UniProt P14921, residues 1-441, Y397A, full length assumed)", "method": "protein-binding microarray", "form": "double-stranded DNA, one strand shown", "medium": "in vitro", "tested at": "not given", "notes": "k-mer, scored over probes, only values ≥0.25", "direction": "higher = stronger binding", "Target sequence (chain)": "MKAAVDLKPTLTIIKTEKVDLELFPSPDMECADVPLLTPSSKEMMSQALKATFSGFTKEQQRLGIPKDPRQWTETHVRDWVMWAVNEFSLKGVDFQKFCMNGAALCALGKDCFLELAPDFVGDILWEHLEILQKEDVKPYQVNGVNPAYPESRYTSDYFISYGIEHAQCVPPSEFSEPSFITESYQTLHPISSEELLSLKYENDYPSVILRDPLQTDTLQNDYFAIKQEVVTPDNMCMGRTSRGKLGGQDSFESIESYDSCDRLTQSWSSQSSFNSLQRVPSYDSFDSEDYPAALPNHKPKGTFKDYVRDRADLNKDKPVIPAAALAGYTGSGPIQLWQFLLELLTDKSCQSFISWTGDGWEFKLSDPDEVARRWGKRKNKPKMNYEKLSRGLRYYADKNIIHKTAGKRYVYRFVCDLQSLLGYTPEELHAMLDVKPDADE"}
{"Oligonucleotide": "CCGGAAAA", "E-score": 0.297}
{"Oligonucleotide": "ATGTTGAC", "E-score": 0.294}
{"Oligonucleotide": "GTTCCGGA", "E-score": 0.25}
{"Oligonucleotide": "TCCTGACA", "E-score": 0.278}
{"Oligonucleotide": "GTTGGCAA", "E-score": 0.362}
{"Oligonucleotide": "GCGCAAAC", "E-score": 0.295}
{"Oligonucleotide": "CGGATGTA", "E-score": 0.423}
{"Oligonucleotide": "AATGGCAC", "E-score": 0.29}
{"note": "Some of these lines once more (block 3):"}
{"Variant": "YKVKRRFVFGADD [L7F]", "normalised enrichment score": 0.534}
{"Variant": "YKVKRLLVFGADD [R6L]", "normalised enrichment score": 0.647}
{"Variant": "YKVKRHLVFGADD [R6H]", "normalised enrichment score": 0.582}
{"Variant": "YKVKRRLVFVADD [G10V]", "normalised enrichment score": 3.04}
{"Variant": "YKVKRRLVFGAWD [D12W]", "normalised enrichment score": 1.65}
{"Variant": "YKVKRQLVFGADD [R6Q]", "normalised enrichment score": 2.64}
